{"data": "Measurements collected from several papers", "target": "Wee1-like protein kinase (WEE1, Homo sapiens, UniProt P30291)", "note": "Lines come from different studies, so protocols differ. “And” joins repeats or separate records; there may be more than shown."}
{"SMILES": "N[C@H]1CC[C@H](Nc2nccc(-c3cccnc3Oc3ccc(NC(=O)NC4CC4)c4ccccc34)n2)CC1", "assay": "kinobead competition pulldown", "system": "HEK293/HCT116 lysate mixture", "conditions": "10 µM, 1 h, 4 °C", "how to read": "lower = stronger competition", "endpoint": "log2 LFQ intensity", "result": "27.5 and 27.6 and 27.4"}
{"SMILES": "CNC1C[S+]2CC[S+]3CC[S+](C1)[Ru-4]321([N]=C=S)[n]2c3ccc(OC)cc3c3c4c(c5cc(F)c[n+]1c5c32)C(=O)NC4=O (stereo not shown)", "assay": "KinomeScan", "conditions": "0.1 µM", "how to read": "reference: untreated", "endpoint": "remaining binding", "result": "100%"}
{"SMILES": "Cc1ccc(-c2c(/C=C(\\C#N)C(=O)NC(C)C)n(CCCO)c3ncnc(N)c23)cc1", "assay": "cell-free assay, competition with immobilised ligand", "conditions": "1 µM", "endpoint": "remaining binding", "result": "95%"}
{"SMILES": "C=CC(=O)N1CCCC(n2c(=O)c3ncccc3n(Cc3ccc(Oc4ccccc4)cc3)c2=O)C1 (stereo not shown)", "assay": "cell-free assay, competition with immobilised ligand", "conditions": "1 µM", "endpoint": "remaining binding", "result": "75%"}
{"SMILES": "CC(C)=CC1OC(C)(C)C2C=C3C(=O)C(Cl)=CC(O)C3C3C(O)C4OC4C(=O)C132 (stereo not shown)", "assay": "cell-free assay, competition with immobilised ligand", "conditions": "10 µM", "endpoint": "remaining binding", "result": "97%"}
{"SMILES": "C=CC(=O)N1Cc2nc(-c3cc(-c4cc(Cl)cnc4Cl)c(F)cc3F)n(-c3ccncn3)c2C1", "assay": "cell-free assay, inhibitor", "conditions": "1 µM", "endpoint": "inhibition", "result": "-8%"}
{"SMILES": "CN1CCN(Cc2ccc(-c3ccc(CO[C@H]4CCC[C@@H]4NC(=O)c4cc(-c5cnn(C)c5)cnc4N)cc3)cc2)CC1", "assay": "enzyme activity, inhibitor", "conditions": "0.1 µM", "endpoint": "inhibition", "result": "3%"}
{"SMILES": "CS(=O)(=O)Nc1cccc(-c2csc3cnc(Nc4ccc(N5CCN(CCCCCOc6cccc7c6C(=O)N(C6CCC(=O)NC6=O)C7=O)CC5)cc4)nc23)c1 (stereo not shown)", "assay": "target engagement in cells", "system": "MOLT-4", "conditions": "1 µM", "endpoint": "inhibition", "result": "> 75%"}
{"SMILES": "CCN1CCN(Cc2ccc(C(=O)Nc3ccc(C)c(NCc4cnc5[nH]ccc5c4OC)c3)cc2C(F)(F)F)CC1", "assay": "binding, competition with immobilised ligand", "conditions": "1 µM", "endpoint": "remaining binding", "result": "99%"}
{"SMILES": "C=CC(=O)N1CCc2ccc(-n3c(=O)ccc4cnc5ccc(-c6cnn(C)c6)cc5c43)cc21", "assay": "KINOMEscan", "conditions": "1 µM", "how to read": "reference: DMSO control", "endpoint": "remaining binding", "result": "95%"}
{"SMILES": "CNC(=O)C1CCN(c2cc(C)c(F)cc2NC(=O)c2ccc(-c3cc(O)ccc3C)c(C)c2)CC1", "assay": "binding, competition with immobilised ligand", "conditions": "1 µM", "endpoint": "remaining binding", "result": "100%"}
{"SMILES": "NC(=O)C[C@H]1CCc2sc3ncnc(O[C@H]4CC[C@H](N5CCOCC5)CC4)c3c21", "assay": "enzyme activity, inhibitor", "conditions": "10 µM", "endpoint": "inhibition", "result": "-3%"}
{"SMILES": "COc1ccc(O)cc1-c1c[nH]c2ncc(-c3cncc(C(=O)N(C)C)c3)cc12", "assay": "binding, competition with immobilised ligand", "conditions": "0.2 µM", "endpoint": "inhibition", "result": "6.13%"}
{"SMILES": "COCC12C(=O)NC3C4(C(OC)CC1O)C1CC5(O)C(OC)C(O)C(OC(C)=O)(C1C5OC(=O)c1ccccc1)C3(O)C(OC)C24 (stereo not shown)", "assay": "kinase activity, inhibitor, ProQinase kinase profiling", "conditions": "25 µM", "how to read": "reference: control", "endpoint": "remaining activity", "result": "102% and 95%"}
{"SMILES": "Cc1ccc(C(=O)Nc2ccc(CN3CCN(C)CC3)c(C(F)(F)F)c2)cc1C#Cc1cnc2cccnn12", "assay": "target engagement, NanoBRET", "system": "human cells", "endpoint": "Hill slope", "result": -1.85}
{"SMILES": "COc1cc(Nc2nccc(-c3cnn4nc(OC)ccc34)n2)cc(C(F)(F)F)c1", "assay": "binding, competition with immobilised ligand", "conditions": "1 µM", "endpoint": "remaining binding", "result": "98%"}
